Assay results from different studies.
Lines come from different studies, so protocols differ. ± gives the spread as reported.

Structure (SMILES)	tested on	test	system	setting	how to read	measurement	value
C[C@H]1CN(C(=O)CC#N)[C@]12CCN(c1ncnc3[nH]ccc13)C2	–	–	healthy human	oral, 6 mg single	–	subjects withdrawn for AEs	0%
CCN1/C(=C/C(C)=O)Sc2ccc(F)cc21	–	–	cynomolgus monkey	oral, 100 mg/kg, 1 h post-dose	reference: pre-dose	systolic blood pressure change	95.8 ± 2.2%
C[C@H]1C=C(Cc2ccccc2)C(=O)O1	–	soil adsorption	tested soils	geometric mean	–	Freundlich coefficient KF	1.8 mL/g
CCOc1c([C@H](C)n2nc(C)c3c(N)ncnc32)cc(Cl)c(F)c1[C@@H]1CNC(=O)C1	–	refers to: unchanged compound	Japanese patients, urine	oral, dose not given, 0-8 h, cycle 1 day 15	–	urinary excretion, unchanged	12.1 ± 4.8%
C[C@H](O)c1cc(C(=O)N[C@@H](C)Cn2ccc(-c3ccc(C#N)c(Cl)c3)n2)n[nH]1	–	–	human, fasted, plasma	oral solution, 300 mg 14C-darolutamide, geometric mean	–	AUC(0-tlast)	38100 ng·h/mL
Cn1ncc(S(=O)(=O)NC2CCSc3ccc(Cl)cc32)c1C(=O)O (centres unmarked)	–	colloidal aggregate formation, dynamic light scattering	50 mM potassium phosphate buffer	200 µM, pH 7.0, 1% DMSO	higher = more aggregation	DLS scattered light intensity	296000 counts/s
CC(=O)N(C)[C@H]1CCN(C(=O)c2cnc3c(c2)C[C@](C)(c2ccc(F)cc2)N3)C1	–	–	healthy male subjects, multiple rising dose	oral, 15 mg once daily	–	serious adverse events	0%
CCn1cc(C(=O)N2CCOCC2)c(=O)c2cc(NC3Cc4ccccc4C3)cnc21	–	–	human, fed	oral suspension, 1200 mg/day twice daily, day 1, arithmetic mean	–	AUC(0-12)	8680 ng·h/mL
COc1ccc([C@@H](O)c2cc(-c3ncnc4cc(N5CCOCC5)ccc34)c(F)cc2Cl)nn1	–	–	locally advanced rectal cancer patients	50 mg, added: capecitabine and radiotherapy	–	asthenia TEAE incidence	0%
CNCc1ccc(-c2[nH]c3cc(F)cc4c3c2CCNC4=O)cc1	–	–	human patients	oral, 600 mg twice daily, grade 3	–	incidence of malignant neoplasm progression	0%
O=C(Nc1nnc(Cl)s1)c1ccco1	–	haemolysis	sheep erythrocytes	1 h, pH 7.5	–	HC50	> 128 µg/mL
CCn1c(=O)c(-c2cc(NC(=O)Nc3ccccc3)c(F)cc2Br)cc2cnc(NC)cc21	–	refers to: accidental overdose	healthy human, matched to moderate hepatic impairment	oral, 50 mg single dose	–	participants with grade ≥ 3 TEAE	0%
Cn1cc(-c2ccc(-c3cncc(Cl)c3N3CCC4(CCNC4=O)CC3)cc2)cn1	COLO 205	gene expression, microarray, refers to: HSPA1B mRNA	–	concentration not given, 2 h	reference: untreated cells	log2 fold change	2.07
CC(Cc1ccc(NS(=O)(=O)c2cc(Cl)cc(Cl)c2O)cc1)C(=O)O (centres unmarked)	–	colloidal aggregate formation, dynamic light scattering	50 mM potassium phosphate buffer	200 µM, pH 7.0, 1% DMSO	higher = more aggregation	DLS scattered light intensity	660000 counts/s
Cc1ccc(CCC(=O)Nc2nnc(S(N)(=O)=O)s2)cc1	–	–	BALB/c mice, male, plasma	oral, 20 mg/kg	–	volume of distribution	31.2 L/kg
O=C1NCCc2nc(OCc3cccc(F)c3)ccc21	–	modified Irwin test	Sprague-Dawley rat, male	oral, 100 mg/kg, 1 h	higher = stronger effect	corneal reflex loss score	0
C[C@@H](Oc1ccc(S(C)(=O)=O)cc1C(=O)N1C[C@@H]2C[C@]2(c2cc(C(F)(F)F)on2)C1)C(F)(F)F	–	LC-MS/MS	young human subjects, plasma	oral, 10 mg once daily, steady state, multiple doses	–	Vz/F	329 L
COc1cc2nccc(Oc3ccc(NC(=O)NC4CC4)c(Cl)c3)c2cc1C(N)=O	–	UPLC-MS/MS	Sprague-Dawley rat, male, plasma	oral, 10 mg/kg, without azole co-treatment	–	terminal half-life	4.34 ± 1.76 h
O=C(c1nc2n(n1)[C@H](c1ccccc1)C[C@@H]2F)C1CC1	–	–	human	150 mg single dose, mean	–	fraction excreted in urine 0-72 h	0.16%

Structure (SMILES)	tested on	test	system	setting	how to read	measurement	value
CCCOc1ccc([C@H]2CNC(=O)N2c2ccc3[nH]cnc3c2)cc1	–	–	human volunteers fasted, plasma	oral capsule, 200 mg single dose, crossover, geometric mean	–	AUC(0-tlast)	2100 ng·h/mL
CC[C@H](C)[C@H](NC(=O)[C@H](Cc1ccccc1)NC(=O)[C@H](CCC(=O)O)NC(=O)[C@H](CCCCNC(=O)COCCOCCNC(=O)COCCOCCNC(=O)CC[C@H](NC(=O)CCCCCCCCCCCCCCCCC(=O)O)C(=O)O)NC(=O)[C@H](C)NC(=O)[C@H](C)NC(=O)[C@H](CCC(N)=O)NC(=O)CNC(=O)[C@H](CCC(=O)O)NC(=O)[C@H](CC(C)C)NC(=O)[C@H](Cc1ccc(O)cc1)NC(=O)[C@H](CO)NC(=O)[C@H](CO)NC(=O)[C@@H](NC(=O)[C@H](CC(=O)O)NC(=O)[C@H](CO)NC(=O)[C@@H](NC(=O)[C@H](Cc1ccccc1)NC(=O)[C@@H](NC(=O)CNC(=O)[C@H](CCC(=O)O)NC(=O)C(C)(C)NC(=O)[C@@H](N)Cc1cnc[nH]1)[C@@H](C)O)[C@@H](C)O)C(C)C)C(=O)N[C@@H](C)C(=O)N[C@@H](Cc1c[nH]c2ccccc12)C(=O)N[C@@H](CC(C)C)C(=O)N[C@H](C(=O)N[C@@H](CCCNC(=N)N)C(=O)NCC(=O)N[C@@H](CCCNC(=N)N)C(=O)NCC(=O)O)C(C)C	–	QT interval corrected for heart rate, 12-lead Holter ECG	healthy human subjects	subcutaneous, 1.5 mg once weekly, 36 h post-dose, steady state	reference: placebo, time-matched baseline	placebo-subtracted change in QTcI	-6.5 ms
Cn1ncc(S(=O)(=O)NC(c2ccc(Cl)cc2)c2cccs2)c1C(=O)O (centres unmarked)	–	colloidal aggregate formation, dynamic light scattering	50 mM potassium phosphate buffer	200 µM, pH 7.0, 1% DMSO	higher = more aggregation	DLS scattered light intensity	199000 counts/s
CNc1ccc(-c2nc3ccc(O)cc3s2)cc1 [carbon-11 labelled]	–	microPET/CT imaging	APP/PS1 mouse, AD model, heart	intravenous, 5 min	–	SUV	1.17 ± 0.743
C=CC(=O)Nc1cc(Nc2ncc(C(=O)OC(C)C)c(-c3cn(C)c4ccccc34)n2)c(OC)cc1N(C)CCN(C)C	–	–	healthy human, urine	oral, 80 mg single dose, arithmetic mean	–	fraction of dose excreted	0.74%
COc1cc2c(cc1OC)CN(CCc1ccc(NC(=O)c3cc(OC)c(OC)cc3NC(=O)c3cnc4ccccc4c3)cc1)CC2	–	–	0.22 µm nylon filter	–	–	drug loss on filter	< 1%
OC[C@H]1O[C@@H](c2ccc(Cl)c(Cc3ccc(O[C@H]4CCOC4)cc3)c2)[C@H](O)[C@@H](O)[C@@H]1O	–	–	Japanese type 1 diabetes patients, blood	10 mg, day 28	reference: baseline	change in Calcium	-0.2 mg/dL
COc1ncc(-c2nc3c(n2C(C)C)[C@H](c2ccc(Cl)cc2)N(c2cc(Cl)cn(C)c2=O)C3=O)c(OC)n1	–	–	human patients, plasma	oral, 250 mg, high-dose arm, cycle 1 day 1	–	AUC(0-t) geometric mean	41400 ng·h/mL
CNC(=O)c1ccc(-c2cnc3ncc(Cc4ccc5ncccc5c4)n3n2)cc1F	–	CTCAE v4.0, any causality	human cancer patients	oral, 600 mg twice daily, expansion, other tumours, RP2D	–	non-cardiac chest pain incidence (all grades)	6%
Cc1cccc(Cn2cc(CO)c3cnccc32)c1	–	–	male F344 rat, serum	oral, 100 mg/kg/day, 2 days	–	GGT	1.3 U/L
O=C(O)CCC(=O)O.[2H]C([2H])([2H])Oc1cc(C)c2[nH]ccc2c1CN1CC[C@@H](C2CC2)C[C@H]1c1ccc(C(=O)O)cc1	–	–	healthy Chinese subjects	600 mg, single ascending dose	–	TEAE decreased neutrophil	0%
Cc1cc(Nc2ccc(S(F)(F)(F)(F)F)cc2)n2nc(C(C)(F)F)nc2n1	–	–	Plasmodium falciparum malaria patients	oral, 250 mg	–	adverse event Chills	0%
O=C(Nc1nc2cccc(-c3ccc(CN4CCS(=O)(=O)CC4)cc3)n2n1)C1CC1	–	refers to: paraesthesia	human rheumatoid arthritis patients	oral, 150 mg once daily, 4 weeks, regardless of relatedness	–	treatment-emergent adverse events	0%
Cc1cc(-c2nccc3c2ccn3CC(=O)Nc2ccc(-c3cnccn3)cn2)ccn1	–	–	human	20 mg once daily, multiple ascending dose	–	subjects with limb injury	11.1%
COc1ccc(NC(=O)N2CCCCN3[C@H](COCCC(=O)O)[C@H](c4ccc(C#Cc5ccccc5)cc4)[C@@H]3C2)cc1	–	–	CD-1 mouse	intravenous, dose not given	–	Vss	1 L/kg
O=C(Nc1cnccc1Cl)N1CCN(Cc2ccc3c(c2)OC(F)(F)O3)CC1	–	multiple ascending dose	young women	100 mg, treatment-emergent adverse events	–	alanine aminotransferase increased	0%
Cn1ncc(S(=O)(=O)NC(c2cccc(Cl)c2)c2cccc(Cl)c2)c1C(=O)O	–	colloidal aggregate formation, dynamic light scattering	50 mM potassium phosphate buffer	200 µM, pH 7.0, 1% DMSO	higher = more aggregation	DLS scattered light intensity	229000 counts/s
Cc1ccc([C@@H]2O[C@H](CO)[C@@H](O)[C@H](O)[C@H]2O)cc1Cc1ccc(-c2ccc(F)cc2)s1	–	–	Japanese type 2 diabetes patients	400 mg, day 1, 24 h urine collection	reference: baseline	urinary chloride excretion change	27.1 mEq
CCCCCc1ccc(C(=O)Oc2ccc(C#N)c(F)c2)cc1	–	refers to: compound	human pregnant women, male fetuses, cord serum	dose not given, paired maternal-cord samples, mean	–	concentration	0.88 ng/mL

A few entries again:
Structure (SMILES)	tested on	test	system	setting	how to read	measurement	value
Cn1cc(-c2ccc(-c3cncc(Cl)c3N3CCC4(CCNC4=O)CC3)cc2)cn1	COLO 205	gene expression, microarray, refers to: HSPA1B mRNA	–	concentration not given, 2 h	reference: untreated cells	log2 fold change	2.07
CC(Cc1ccc(NS(=O)(=O)c2cc(Cl)cc(Cl)c2O)cc1)C(=O)O (centres unmarked)	–	colloidal aggregate formation, dynamic light scattering	50 mM potassium phosphate buffer	200 µM, pH 7.0, 1% DMSO	higher = more aggregation	DLS scattered light intensity	660000 counts/s
Cc1ccc(CCC(=O)Nc2nnc(S(N)(=O)=O)s2)cc1	–	–	BALB/c mice, male, plasma	oral, 20 mg/kg	–	volume of distribution	31.2 L/kg
O=C1NCCc2nc(OCc3cccc(F)c3)ccc21	–	modified Irwin test	Sprague-Dawley rat, male	oral, 100 mg/kg, 1 h	higher = stronger effect	corneal reflex loss score	0
C[C@@H](Oc1ccc(S(C)(=O)=O)cc1C(=O)N1C[C@@H]2C[C@]2(c2cc(C(F)(F)F)on2)C1)C(F)(F)F	–	LC-MS/MS	young human subjects, plasma	oral, 10 mg once daily, steady state, multiple doses	–	Vz/F	329 L
COc1cc2nccc(Oc3ccc(NC(=O)NC4CC4)c(Cl)c3)c2cc1C(N)=O	–	UPLC-MS/MS	Sprague-Dawley rat, male, plasma	oral, 10 mg/kg, without azole co-treatment	–	terminal half-life	4.34 ± 1.76 h
